Assay results from different studies.
Compare with care: the assays were run in different laboratories. Values joined by “and” are separate records of one study, mostly repeats; a detail may differ. ± gives the spread as reported. Positions of bridges follow the written chain, without caps; N, C: chain ends. No end group written: not given here.
Chain of UniProt Q14994 (whole entry, looked up): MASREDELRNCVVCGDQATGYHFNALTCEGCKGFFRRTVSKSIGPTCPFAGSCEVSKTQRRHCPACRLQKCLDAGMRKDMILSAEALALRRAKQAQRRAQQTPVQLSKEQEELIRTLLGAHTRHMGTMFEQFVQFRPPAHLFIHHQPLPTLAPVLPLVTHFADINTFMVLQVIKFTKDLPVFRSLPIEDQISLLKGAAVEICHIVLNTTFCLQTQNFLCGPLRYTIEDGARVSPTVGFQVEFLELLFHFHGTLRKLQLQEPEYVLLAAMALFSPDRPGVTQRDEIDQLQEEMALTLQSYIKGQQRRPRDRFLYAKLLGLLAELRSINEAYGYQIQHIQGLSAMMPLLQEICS
Chain of UniProt O00482 (whole entry, looked up): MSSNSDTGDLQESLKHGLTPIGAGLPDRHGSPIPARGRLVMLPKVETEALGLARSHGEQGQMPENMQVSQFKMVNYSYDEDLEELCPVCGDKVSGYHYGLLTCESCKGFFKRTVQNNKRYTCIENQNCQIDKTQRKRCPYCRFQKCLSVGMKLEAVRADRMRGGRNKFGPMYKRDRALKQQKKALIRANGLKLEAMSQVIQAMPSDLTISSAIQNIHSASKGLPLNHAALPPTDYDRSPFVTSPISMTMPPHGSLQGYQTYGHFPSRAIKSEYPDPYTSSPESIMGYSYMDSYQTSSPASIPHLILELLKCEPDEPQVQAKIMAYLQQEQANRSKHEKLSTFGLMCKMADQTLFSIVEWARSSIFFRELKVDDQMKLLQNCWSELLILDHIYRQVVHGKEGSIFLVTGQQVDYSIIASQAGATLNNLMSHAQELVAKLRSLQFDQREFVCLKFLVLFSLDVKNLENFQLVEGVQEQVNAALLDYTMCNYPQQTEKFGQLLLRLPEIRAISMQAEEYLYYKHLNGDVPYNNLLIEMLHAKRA
Chain of UniProt Q9QXD6 (whole entry, looked up): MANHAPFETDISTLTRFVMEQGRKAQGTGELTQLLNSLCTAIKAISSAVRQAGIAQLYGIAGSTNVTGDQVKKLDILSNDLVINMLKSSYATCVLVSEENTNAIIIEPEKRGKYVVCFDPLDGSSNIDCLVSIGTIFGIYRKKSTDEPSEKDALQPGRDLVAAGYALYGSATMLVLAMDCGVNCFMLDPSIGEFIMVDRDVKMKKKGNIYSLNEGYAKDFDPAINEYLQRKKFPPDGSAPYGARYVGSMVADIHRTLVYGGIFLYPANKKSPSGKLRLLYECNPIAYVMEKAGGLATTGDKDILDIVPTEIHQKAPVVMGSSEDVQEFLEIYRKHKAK
Chain of UniProt Q2FZ93 (whole entry, looked up): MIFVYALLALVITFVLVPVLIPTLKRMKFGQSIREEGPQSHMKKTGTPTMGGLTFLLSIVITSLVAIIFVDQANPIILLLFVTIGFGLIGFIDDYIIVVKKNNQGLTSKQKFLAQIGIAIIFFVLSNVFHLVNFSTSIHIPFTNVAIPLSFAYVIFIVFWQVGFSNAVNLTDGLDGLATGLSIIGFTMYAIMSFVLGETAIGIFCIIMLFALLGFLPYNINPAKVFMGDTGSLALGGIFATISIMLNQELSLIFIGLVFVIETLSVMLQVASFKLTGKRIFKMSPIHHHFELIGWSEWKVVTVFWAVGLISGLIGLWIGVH
Chain of UniProt P22629 (whole entry, unmodified, looked up): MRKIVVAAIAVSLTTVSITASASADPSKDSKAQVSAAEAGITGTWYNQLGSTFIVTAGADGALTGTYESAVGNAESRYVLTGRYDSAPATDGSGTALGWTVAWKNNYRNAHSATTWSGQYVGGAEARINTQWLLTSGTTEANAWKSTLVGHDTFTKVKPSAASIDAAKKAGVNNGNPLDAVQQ
Chain of UniProt Q96RI1 (whole entry, looked up): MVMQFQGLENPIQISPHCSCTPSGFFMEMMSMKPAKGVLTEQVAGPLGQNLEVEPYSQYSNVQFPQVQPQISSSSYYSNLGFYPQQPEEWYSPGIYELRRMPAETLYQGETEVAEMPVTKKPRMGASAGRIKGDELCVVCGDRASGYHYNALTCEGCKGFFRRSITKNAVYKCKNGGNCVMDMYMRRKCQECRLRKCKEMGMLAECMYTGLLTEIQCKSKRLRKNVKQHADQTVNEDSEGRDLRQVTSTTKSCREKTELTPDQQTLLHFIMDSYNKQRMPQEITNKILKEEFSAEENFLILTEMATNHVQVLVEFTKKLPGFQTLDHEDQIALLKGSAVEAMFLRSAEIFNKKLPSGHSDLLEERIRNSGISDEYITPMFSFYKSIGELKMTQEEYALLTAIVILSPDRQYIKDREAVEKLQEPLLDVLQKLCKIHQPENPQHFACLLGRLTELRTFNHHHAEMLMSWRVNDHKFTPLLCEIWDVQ

`TNP-AMP` has a Kd of 19400 ± 1860 nM (Fructose-1,6-bisphosphatase 1 (Mus musculus, UniProt Q9QXD6); fluorescence titration; 1 µM enzyme, untagged; 25 °C, wild type).
`heparin sodium` has a decreased neutrophil of 75% (healthy Chinese adult volunteers; continuous intravenous infusion, 8 IU/kg/h, 5 days).
The IC50 of `abamectin` is reported as 9400 ± 1400 nM (NR5A2 (Homo sapiens, UniProt O00482); binding, differential scanning fluorimetry; human protein).
`ACIMVHYDRVECSG (disulfide 2-12 (inferred)) (disulfide)` gave a Kd of 0.8 ± 0.2 nM (Streptavidin (Streptomyces avidinii, UniProt P22629, E68V/S69T/V71R); binding, yeast surface display; 1 h, 4 °C, together with: Strep-Tactin).
`Ivermectin` has an IC50 of 760 ± 90 nM (Bile acid receptor (NR1H4, Homo sapiens, UniProt Q96RI1); coactivator recruitment, antagonist, TR-FRET; together with: chenodeoxycholic acid 50 µM).
For `HVLVMSATRR`, the MCHC was 30.2 g/dL and 30.9 g/dL and 30.8 g/dL and 30.7 g/dL (peptide, C57BL/6J mice, male, blood; subcutaneous osmotic pump, 3 mg/kg/day peptide basis, 8 weeks).
The Kd of `nonaarginine` is reported as 1360 ± 150 nM (PorA peptide pore; peptide binding, planar bilayer single-channel recording; pH 7.4, -20 mV, cis side, 150 mM KCl).
`Polymyxin B` has a survival of 100% (mouse; intraperitoneal, 20 mg/kg single dose, day 6).
The Kd of `hexaarginine` is reported as 9860 ± 1000 nM (PorA peptide pore; peptide binding, planar bilayer single-channel recording; pH 7.4, +15 mV, trans side, 150 mM KCl).
`insulin human` has a fold change of 1.17 (measured: SOD2 mRNA; EcoHIV-infected mouse, brain; i.p., dose not given; reference: PBS).
For `thalidomide-FITC conjugate`, the Kd was 96 ± 21 nM (Protein cereblon, with DDB1 (CRBN, Homo sapiens, UniProt Q96SW2); binding, TR-FRET; CRBN-DDB1 complex).
`dynorphin A (1-17)` has a Ki of 5.5 ± 2.6 nM (opioid receptor mouse; binding; CD-1 mouse brain).
With `tunicamycin` the IC50 was 16 nM (mraY (Staphylococcus aureus, UniProt Q2FZ93); enzyme activity, inhibitor).
`aspterric acid` gave an inhibition of 8.83% (root length; Arabidopsis thaliana Col-0 seeds; 3.125 µg/mL, seed germination; reference: water control).
`abamectin` has an IC50 of 31400 ± 19000 nM (Nuclear receptor subfamily 1 group I member 3 (Homo sapiens, UniProt Q14994); receptor activity, inhibitor; cells).

A few entries again:
The Kd of `nonaarginine` is reported as 1360 ± 150 nM (PorA peptide pore; peptide binding, planar bilayer single-channel recording; pH 7.4, -20 mV, cis side, 150 mM KCl).
